# Measurements collected from several papers.
# Every numbered part comes from another study and shows a few of its results, in no order.

# Series 1
# Target: Sal-like protein 4, full length isoform A (SALL4, Homo sapiens, UniProt Q9UJQ4, residues 1-1053)
# Sequence of UniProt Q9UJQ4 (whole entry, looked up): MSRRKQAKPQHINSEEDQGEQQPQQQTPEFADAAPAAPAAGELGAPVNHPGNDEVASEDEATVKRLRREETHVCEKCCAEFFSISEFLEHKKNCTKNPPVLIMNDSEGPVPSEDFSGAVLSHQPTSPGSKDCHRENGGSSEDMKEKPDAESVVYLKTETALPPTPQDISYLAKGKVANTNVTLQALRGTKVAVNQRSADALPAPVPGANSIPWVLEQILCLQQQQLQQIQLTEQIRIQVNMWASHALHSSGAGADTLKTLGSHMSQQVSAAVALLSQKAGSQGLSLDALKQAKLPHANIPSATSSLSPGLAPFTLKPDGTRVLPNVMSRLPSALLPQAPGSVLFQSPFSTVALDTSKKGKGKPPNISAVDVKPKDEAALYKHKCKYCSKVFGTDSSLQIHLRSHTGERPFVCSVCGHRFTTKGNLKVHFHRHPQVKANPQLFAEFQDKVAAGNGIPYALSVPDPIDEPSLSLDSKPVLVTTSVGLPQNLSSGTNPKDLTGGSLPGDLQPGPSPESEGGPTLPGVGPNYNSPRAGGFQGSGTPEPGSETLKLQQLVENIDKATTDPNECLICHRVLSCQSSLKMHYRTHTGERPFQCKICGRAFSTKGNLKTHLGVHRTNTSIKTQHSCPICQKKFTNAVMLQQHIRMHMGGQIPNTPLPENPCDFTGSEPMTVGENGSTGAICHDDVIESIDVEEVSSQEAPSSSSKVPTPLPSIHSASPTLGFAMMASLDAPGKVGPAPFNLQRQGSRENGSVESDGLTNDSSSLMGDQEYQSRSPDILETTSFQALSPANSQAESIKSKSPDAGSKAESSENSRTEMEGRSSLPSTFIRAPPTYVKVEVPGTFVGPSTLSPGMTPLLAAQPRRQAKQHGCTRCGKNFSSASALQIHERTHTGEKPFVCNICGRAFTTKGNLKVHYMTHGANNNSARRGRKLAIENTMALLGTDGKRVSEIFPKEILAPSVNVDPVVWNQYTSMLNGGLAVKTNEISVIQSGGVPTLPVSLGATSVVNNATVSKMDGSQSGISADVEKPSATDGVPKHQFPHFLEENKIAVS
# Technique: universal PBM
# Form: double-stranded DNA, one strand shown
# Medium: in vitro
# Tested at: 600 nM
# Setting: 8-mer, flanks averaged, mean of replicates
# Reading: higher = stronger binding
Sequence,E-score
TTCAAGAA,0.278
AGTACTAT,0.143
AATATAAG,0.391
TCTACTCA,0.0467
CAAATAGG,0.0728
CTTTCGAC,0.0159
CATAGGGC,-0.222
ATGGTATG,0.148
CACGAGAA,-0.149
ACCCGTGG,-0.302
ATCGTTGA,0.0954
CGGGTACC,-0.318
GTGCCAAA,-0.0342
AATTTTAC,0.287
AAAGGATG,0.149
GAAGAAGA,0.0578
CTCTATGC,-0.0444
ACCGGGAA,-0.0341
CTGGGCCC,-0.426
CGCGCGCA,-0.212
TCTGATCA,-0.00402
GTACCAAA,0.0779
ATGGATAA,0.257
ACTATGGG,-0.101

# Series 2
# Target: Ras GTPase-activating protein-binding protein 1, full length (G3BP1, Homo sapiens, UniProt Q13283)
# Sequence of UniProt Q13283 (whole entry, looked up): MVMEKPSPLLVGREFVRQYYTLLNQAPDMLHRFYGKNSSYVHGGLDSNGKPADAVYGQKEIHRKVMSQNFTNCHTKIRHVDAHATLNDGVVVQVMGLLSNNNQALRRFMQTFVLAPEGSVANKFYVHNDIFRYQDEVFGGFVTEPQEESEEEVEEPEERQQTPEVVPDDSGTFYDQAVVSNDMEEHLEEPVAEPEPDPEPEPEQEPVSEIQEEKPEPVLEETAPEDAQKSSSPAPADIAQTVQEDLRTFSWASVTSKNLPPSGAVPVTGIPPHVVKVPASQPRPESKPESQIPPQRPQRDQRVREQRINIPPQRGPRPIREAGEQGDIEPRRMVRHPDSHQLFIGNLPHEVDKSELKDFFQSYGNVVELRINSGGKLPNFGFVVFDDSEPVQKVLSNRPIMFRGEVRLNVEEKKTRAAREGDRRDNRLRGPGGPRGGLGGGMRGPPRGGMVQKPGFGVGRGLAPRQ
# Technique: RNA Bind-n-Seq
# Form: RNA
# Medium: in vitro
# Tested at: 200 nM
# Setting: whole 134-nt RNA, ends assumed
# Together with: 150 mM KCl
# Reference: input library
# Reading: higher = stronger binding
# All sequences stand within: GGGAGUUCUACAGUCCGACGAUC … UGGAAUUCUCGGGUGUCAAGG
Sequence,log2 enrichment
AACACUCAAACCACCAUCAAGCUUUUCCAGGAAUGCUGUCCUCAUUCCACUGACAGAGUUGUUCUUAUUGGAGGAAAACCCGAUAGGGUU,-0.0262
CACAGACAACACGCACCCACACAGACACAGAGGGAAGGGGUUGGGAUGGGGACAGGGUGCACAGCAGGGCGGGGAAGGACCCCAGCCCCU,1.88
UCAAGUCCUGUGCUACACAUCGUAUGUACCGAAUCGGGGAGGGGUGGGGUGGGGAAAGUAUUAUGUUACGCCGUUCGGAUCUGCACUUCC,1.73
AAAAAAAGUGUGUAUUAGGAGGAGAGAGAGGAAAAAAAGAGGAAAGAAGGAAAAAAAAAAGAAUUAAAAAAAAAAAAAAGAAAAACAGAA,-1.02
UAACUUUAGAGGAGGAUCUGAUGGAUAUGGCAGUGCACGUGGAUUUGGGGAUGGCUAUAAUGGGUAUGGAGGAGGACCUGGAGGUGGCAA,0.297
CCUCAAGUCCUGUGCUACACAUCGUAUGUACCGAAUCGGGGCGGGCGGCGGGAAAGUAUUAUGUUACGCCGUUCGGAUCUGCACUUCCAG,0.409
CUCAAGUCCUGUGCUACACAUCGUAUGUACCGAAUCGGUGGUGGUUUUUUUGGAAAGUAUUAUGUUACGCCGUUCGGAUCUGCACUUCCA,-0.352
UCCUCAAGUCCUGUGCUACACAUCGUAUGUACCGAAUCGGUGGGGUGGGUGGAAAGUAUUAUGUUACGCCGUUCGGAUCUGCACUUCCAG,0.336
AGUCCUGUGCUACACAUCGUAUGUACCGAAUCGGGUUUUUGGGAAAGGGUUUUUGGGAAAGUAUUAUGUUACGCCGUUCGGAUCUGCACU,-0.314
ACCAUGCAGGUGGGCAUCUUUGGGAAGUGGAAAAAGGGGGGGAUAGGGAGGGGGGUAACACUUUGGGAACAGGUGGUCCCAGGUCGUUUC,0.895
UAACUUUAGAGGAGGAUCUGAUAGAUAUGGCAGUGGACGUGGAUUUGGGGAUGGCUAUAAUGGGUAUGGAGGAGGACCUGGAGGUGGCAA,0.311
AGUCCUGUGCUACACAUCGUAUGUACCGAAUCGGGAAAAGGGGAAAAGGAAAAGGGGAAAGUAUUAUGUUACGCCGUUCGGAUCUGCACU,-0.226
AGUCCUGUGCUACACAUCGUAUGUACCGAAUCGGGAAAAAGGGAAAAAGGGUUUGGGAAAGUAUUAUGUUACGCCGUUCGGAUCUGCACU,-0.304
CUGUGCUACACAUCGUAUGUACCGAAUCGGGAAAAAAAGGAAAAAAAGGGGAAAAAAAGGGGAAAGUAUUAUGUUACGCCGUUCGGAUCU,-0.632

# Series 3
# Target: RNA binding protein fox-1 homolog 2, RRM domain, GST-SBP tag (RBFOX2, Homo sapiens, UniProt O43251-10, residues 100-194)
# Technique: RNA Bind-n-Seq
# Form: RNA
# Medium: in vitro
# Tested at: 365 nM
# Setting: natural RNA segment, single round, ends assumed
# Reference: no-protein control
# Reading: higher = stronger binding
# All sequences stand within: GGGAGUUCUACAGUCCGACGAUC … UGGAAUUCUCGGGUGCCAA
# Residues (chain): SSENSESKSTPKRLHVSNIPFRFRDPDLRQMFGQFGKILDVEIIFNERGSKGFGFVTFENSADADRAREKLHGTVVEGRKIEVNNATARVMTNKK
Sequence,RBNS enrichment (R)
AGUAUCAUGGGACUUGUGACAAUACAAGACAUGAAUCUAUGUAUAAAAUUUAUCGGCCUUUCUCAUUUACCUGCUCUAGUAUUAUUGUAUUGUGUGUGCGUGCGUGUGUG,0.669
UUUGAGAUUUGUAAAUUGUAUAUAACCAUCUUAAGUUCUGGUCAGUGUGGCGGGCUCAGGGGCUCCUGCUGAGCAAACCGACUCAUGCCCGCAAACCUGUGAACUUUCGC,0.315
AUGGGUCAGCCCUCACUGGGUGUCACACACUGAGAGAAGUCCUAUUGUAAAGAAACGGAAAAAGUCACAAAAAAGUUUGUAUAAAGACAUAUUUUUGUACUACAUGGGGA,0.642
UGAGGAGUGUGAACUGUUGGGGUCAGUUAAGACCCAACAUAACUCUAUCAGAAGAAAACUGUUGUUUGCCUUUCAACCUUGUUUUACAGUUCUGCAGUGUAAUGGAGGAC,0.258
AGACCUUAGAAUCCCAUCUCUAUUUUCCCAACUGACUGUGACAGGCAUGAGGCACUGUCACUUGCUUAGUACAAAGUCCUGGGCUGGAGAGAUGGCUCAGUGGUUAAGAG,1.02
CCAAUGUCUUGAUGCAUGCACUGUUCCCCCUGUGCAGCCGCUGAGCGAGGAGAUGCUCCUUGGGCCCUUUGAGUGCAGUCCUGAUCAGAGCCGUGGUCCUUUGGGGUGAA,7.9
CGCCGGCGCAGGGUCCCAAGCCCACCUCCCGCCCUCAGUCCUGCGGUGUGCGUCUGGGCACGUCCUGCACACACAAUGCAAGUCCUGGCCUCCGCGCCCGCCCGCCCACG,0.184
ACAUGAAGGCUGUGGCAAUCUCAAGAAAUCAUUUUAAUUUGUACAUAUAUUUUCAGGUUCUGCCCACACUGUGAGGUUUUUCUAGAAUCACUGAGUUUCUGAUUUAGUAG,0.8
CAGCCACACCUUGGUCCUCAUCUUGGUCCCUUCCAAUCUGAAACCUCGUGCCUGGCUCGUCUGCCACCUACAUUUCUCUUUCCAGCUGCUGUUUUGUAAAAAGAAAAAGA,0.362
GUUAUGCCAGUGGAUCUCACGCCUCUGUGCAUCACCUAUCUUUGGUUUGUGAAGGCAGCAGUUAAGGGCACAAAGACAGCCAUGGGGACAUUUAUGUAAAUAUGUUUAAU,0.364
CUGAAGAUGCCGAACCCAUGGUCACUUAUAUAUUUUUUGUAAUUACUAUAUUCUAGUUUGGAGUACUUGCUGUAGGAUACAAGCUGUCUUUGCACUAGCUCUAAAGAAGA,0.336
GUUAUUAACAAGAUAUUUUGAGUACAAUAUGGCUCAUUGACUUUUCCAUUACAUCUGAGGAUUCCAGAGUCCUCUGUUCAUCCCUGGGAUAGAGUGAGCCCUCUUGCGUC,1.09

# Single results of other studies
Molecule,target,assay,test system,conditions,scale,measurement,result
"PhoQ, residues 284 288 289 292 302 303 SMYGEC","PhoP, residues 12 14 15 18 19 AQCLL (Escherichia coli, UniProt P23836)","Sort-seq, refers to: YFP reporter",E. coli,"PhoQ-PhoP variant library, together with: 10 µM Mg2+","reference: high Mg2+ state, higher = stronger signaling",fold induction,0.82

# Excerpt of the above (series 1):
Sequence,E-score
ATGGATAA,0.257
CTTTCGAC,0.0159
ATGGTATG,0.148
CATAGGGC,-0.222
AATATAAG,0.391
